Measurements pooled from the literature.
Numbered parts are unrelated; each lists some results of a single study. Substitutions count along the parent as printed.

Study 1
Target: RNA binding protein fox-1 homolog 2, RRM domain, GST-SBP tag (RBFOX2, Homo sapiens, UniProt O43251-10, residues 100-194)
Technique: RNA Bind-n-Seq
Molecule type: RNA
Medium: in vitro
Tested at: 365 nM
Notes: natural RNA segment, single round, ends assumed
Baseline: no-protein control
Reading: higher = stronger binding
Measurement: RBNS enrichment (R)
All sequences stand within: GGGAGUUCUACAGUCCGACGAUC … UGGAAUUCUCGGGUGCCAA
UGCCACCCGGCCGUGGCCCGCCCUGGUCAGGCUGCUUCCUUAAUCAAGAAAACUACCUGGUGAUGCAAUUUUUUUUUUUAAUUUAACUUUAAAAUAAAUGCUGCAUUUGG: 0.402
GUGUCCUAGAAGGGACCCUCCUGUGGUCUUUGUCUUGAUUUUUCUUAAUAAACGGUGCUAUCCCCGCAGGGGCCUCCUGAGUCUUUGAUGAGGGCUUCACUCAGUGGAGC: 0.382
ACCCCCUGCCUCACAUGGGGAGCACUGUUCAGAGCACACACUGGGGAGUUCUGACUUUGGCCAUUAGAGUGAGUCACAUCCCAGACCUACCAGAGAGCAGAAUGCUUGUG: 0.477
GAGGAUUUGGCUGGAAGGGGAUUCUCCGCUGGCACAUGGGAGAAGGCCAUCUUCUGUGUCGGUGCUGUGAUCUGCCUUGUUCUCACUUGCUGAGGAUAAGGGCAUACACG: 0.555
GGCUGUUCUCAUCUGGGGCUGUCUCUUGAUUAAGGCUGUCACCUGUUUGUAUAGGGACCAUGUUUCCCAACGCACUUUGAGUGCAGUUUAGGAGGUAUCCUUUGGAUGCU: 0.369
GCAGGGCAUAGGGCACGCACUGGCUUAACAGUUUAGUAUAUAAGGCUCAAAUAGUCUAUACCUGAACUGCUAUAAGCAAGGUCGAUAGGGAAGUGGAUAGAUUGCUUCAG: 0.578
CAACCCAAGGGACCUCUCACCUUUUGCUGAGCUUCAAUCAGGAAGCUAUUUGCCUGGCUCCAGCAGAUGAUGAGAUAAUGAGGUAGUGGGUUUUUUAUUACUGUUCCAUU: 0.668
CCAGUGUCAUCUCUGCACUUCAGGAAUUGUCAACAACUGAGGUGGCCCUUGUCAGCACUUCUUUUUUUAUACCUCCUCUCAAGGCCACGUAAGUUACCUAGCUCUACCUG: 0.47

Study 2
Target: Ras GTPase-activating protein-binding protein 1, C-terminal RGG region (G3BP1, Homo sapiens, UniProt Q13283)
Chain of UniProt Q13283 (whole entry, looked up): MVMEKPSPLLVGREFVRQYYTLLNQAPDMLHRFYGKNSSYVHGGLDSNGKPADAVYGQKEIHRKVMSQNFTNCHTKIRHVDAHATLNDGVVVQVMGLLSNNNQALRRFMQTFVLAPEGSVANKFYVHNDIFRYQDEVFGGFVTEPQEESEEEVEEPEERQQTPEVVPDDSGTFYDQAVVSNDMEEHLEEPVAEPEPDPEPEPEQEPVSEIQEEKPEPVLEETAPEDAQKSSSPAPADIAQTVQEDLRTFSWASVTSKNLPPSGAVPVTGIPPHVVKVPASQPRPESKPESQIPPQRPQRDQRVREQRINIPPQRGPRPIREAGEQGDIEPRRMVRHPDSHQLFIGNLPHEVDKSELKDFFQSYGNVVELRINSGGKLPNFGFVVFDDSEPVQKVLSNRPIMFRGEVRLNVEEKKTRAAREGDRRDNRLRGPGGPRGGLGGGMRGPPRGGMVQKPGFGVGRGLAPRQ
Technique: RNA Bind-n-Seq
Molecule type: RNA
Medium: in vitro
Tested at: 1 µM
Notes: whole 134-nt RNA, ends assumed
Together with: 150 mM KCl
Baseline: input library
Reading: higher = stronger binding
Measurement: log2 enrichment
All sequences stand within: GGGAGUUCUACAGUCCGACGAUC … UGGAAUUCUCGGGUGUCAAGG
AAGUCCUGUGCUACACAUCGUAUGUACCGAAUCGGGAAAAAAAGGGUGGGAAAGGGAAAGUAUUAUGUUACGCCGUUCGGAUCUGCACUU: 0.827
CCUGUGCUACACAUCGUAUGUACCGAAUCGGGUUUUUUUGGGAAAAAAAGGGAAAAAGGGAAAGUAUUAUGUUACGCCGUUCGGAUCUGC: -2.15
AGUCCUGUGCUACACAUCGUAUGUACCGAAUCAAACCCAAACCCCCAAACCCCCAAAAAAGUAUUAUGUUACGCCGUUCGGAUCUGCACU: -0.972
UGGCCCUGGUGGCAUGCGGGGAGGAAGAGGUGGCCUCAUGGAUCGUGGUAGUCCCGGUGGAAUGUUCAGAGGUGGCCGUGGUGGAGACAG: 2.19
ACCAUGCAGGUGGGCAUCUUUGGGAAGUGGGGCAAGGGGGGGAUAGGGAGGGGGGUAACACUUUGGGAACAGGUGGUCCCAGGUCGGUUC: 1.69
CAAGUCCUGUGCUACACAUCGUAUGUACCGAAUCGGAAAGGAAAGGAAAAAAAGGAAAGUAUUAUGUUACGCCGUUCGGAUCUGCACUUC: -1.71
AGUCCUGUGCUACACAUCGUAUGUACCGAAUCGGGUUUUUGGGUUUGGGUUUUUGGGAAAGUAUUAUGUUACGCCGUUCGGAUCUGCACU: 0.912
AGUCCUGUGCUACACAUCGUAUGUACCGAAUCGGUUUUUGGUUUUUUUGGUUUUUGGAAAGUAUUAUGUUACGCCGUUCGGAUCUGCACU: -1.68
UCAAGUCCUGUGCUACACAUCGUAUGUACCGAAUCGGGUUUGGGAGGGAAAGGGAAAGUAUUAUGUUACGCCGUUCGGAUCUGCACUUCC: 2.02

Study 3
Target: CCNB2, cyclin fold, Cln2 fusion (human)
Technique: yeast growth competition, sequencing
Medium: yeast
Notes: weak parent motif
Baseline: not given
Reading: higher = stronger binding
Measurement: normalised enrichment score
Parent: FZR1 docking peptide (human); QDYERRLLRQIVI; partner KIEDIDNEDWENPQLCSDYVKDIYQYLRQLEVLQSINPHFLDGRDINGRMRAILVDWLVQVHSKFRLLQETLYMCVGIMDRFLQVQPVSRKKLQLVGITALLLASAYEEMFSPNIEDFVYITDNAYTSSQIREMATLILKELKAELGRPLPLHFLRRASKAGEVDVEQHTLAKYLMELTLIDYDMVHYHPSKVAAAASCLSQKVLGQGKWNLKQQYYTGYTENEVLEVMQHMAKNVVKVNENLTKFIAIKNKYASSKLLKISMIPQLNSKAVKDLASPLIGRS
QDYERRLFRQIVI [L8F]: 0.0335
QAYERRLLRQIVI [D2A]: 0.203
QDYERRLLAQIVI [R9A]: -0.452
QDYARRLLRQIVI [E4A]: 0.57
QDYERRLLRQAVI [I11A]: 0.615
QDYERRLARQIVI [L8A]: 0.367
ADYERRLLRQIVI [Q1A]: 0.764

Study 4
Target: Histone acetyltransferase KAT6A, both winged helices, GST fusion (KAT6A, Homo sapiens, UniProt Q92794, residues 1-181)
Technique: protein binding microarray
Molecule type: double-stranded DNA, one strand shown
Medium: in vitro
Tested at: not given
Notes: 8-mer, flanks averaged, mean of 2 arrays, mostly near background
Baseline: not given
Reading: higher = stronger binding
Measurement: E-score
Residues (chain): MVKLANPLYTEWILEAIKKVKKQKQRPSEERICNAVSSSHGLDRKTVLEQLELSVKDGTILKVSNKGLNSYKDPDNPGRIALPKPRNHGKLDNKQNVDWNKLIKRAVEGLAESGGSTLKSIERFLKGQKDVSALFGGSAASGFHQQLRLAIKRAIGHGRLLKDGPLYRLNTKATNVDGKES
AAACAGTT: 0.118
ATTACCTG: -0.0805
CCCCTTAG: -0.156
AGCTATGC: -0.0099
AGGTCTCG: -0.128
CGAGCCAA: -0.175
AAACAACT: -0.161
GTCACGGA: 0.289
CAGCGAAA: -0.027
CACCCGAG: -0.105
CCTGGTCG: -0.0105
CTGTGAAA: -0.0453
AACGAGTA: -0.106
TGGGTACA: -0.0643
AAGCTCTG: -0.149
ATAAGTTG: -0.0912
CCGACAGC: 0.216
GCGTGTAC: 0.199
CCGGTTCG: 0.159
CCCCTAGC: -0.22
AATCCACG: 0.00756
GGTGTCCA: -0.164
ACTACTTC: 0.00082
GCCTGCCC: 0.0305

Study 5
Target: Phosphate system positive regulatory protein PHO4, full length, GST-tagged (PHO4, Saccharomyces cerevisiae, UniProt P07270, residues 1-312)
Technique: competition protein-binding microarray
Molecule type: double-stranded DNA, one strand shown
Medium: in vitro
Tested at: 2 µM
Notes: whole 60-bp probe, lowest competitor level
Together with: Cbf1 competitor, 0.05 µM
Reading: higher = stronger binding
Measurement: fluorescence intensity
All sequences stand within: … GTCTTGATTCGCTTGACGCTGCTG
Residues (chain): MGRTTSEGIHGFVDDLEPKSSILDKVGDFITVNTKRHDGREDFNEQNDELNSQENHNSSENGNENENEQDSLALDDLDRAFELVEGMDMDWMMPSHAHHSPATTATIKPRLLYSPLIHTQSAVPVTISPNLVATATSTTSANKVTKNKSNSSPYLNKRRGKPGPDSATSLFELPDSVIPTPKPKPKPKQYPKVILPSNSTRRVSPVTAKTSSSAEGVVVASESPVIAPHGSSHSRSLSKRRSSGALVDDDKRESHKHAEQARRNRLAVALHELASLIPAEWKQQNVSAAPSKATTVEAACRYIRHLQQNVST
CGGCAATTGCTGAGCACCGTGCGATGTTATGATCGC: 7910 a.u.
GTATTGTAAGACTGTCATGTGATTGCTGTCGCGTTC: 6950 a.u.
AAAGCGGTAATTTGAAACGTGGGTGCAGATATCTAT: 14000 a.u.
GCGGTGAAAAGTGCAAATGTGATGACAGCACCGGAA: 3340 a.u.
GCGGGTATTCCCCCTGGTGTGATGAACATTGTATCC: 3580 a.u.
AGTAACTACGTAAATCACCTGCTACCTCTCTGTTCT: 4850 a.u.
CTTTCCCGATCTTGTCACGCTACTTTAGCACATTTG: 5790 a.u.
GTCTTGTCTCATTGAACAGTGGGTGTCCCCACTTCA: 4630 a.u.
CTAACGAAGGTTTGGGCGGTGGGTGACAAGCCAAGT: 3680 a.u.
GAGTAAAGATGTTAGCACGTGATGGGCTGCAGAGGT: 18600 a.u.
CAACCAACTGACGAAACCGTGATGGTTATCAGAACT: 5100 a.u.
CTAACGAAGGTTTGGCTGGTGGGTGACAAGCCAAGT: 3010 a.u.
GATTTTTTCAAATGGCACATGCTTCGGAAAAATGAT: 11900 a.u.
GTCTTGTCTCATTTTCACGTGCCGTTCCCCACTTCA: 13100 a.u.
TGCGCAACAACTTGTTGGGTGGGTGTATGTCTAGAA: 4720 a.u.
ACACCTGACTCGGACCATGTGGCTAAGTTTGTTTTG: 10300 a.u.
CTCAGGTCGATGAGTCTCGTGGCCGCAAAGCTGATG: 9840 a.u.
TAATCAATGGGTTTGCATGTGGTAATCAATTGATAA: 9360 a.u.
CAAAACGTTCGTTTCTGCGTGCCAGTCTTCTCCACT: 7790 a.u.
